Published values collected from several papers.
Lines come from different studies, so protocols differ.
Target: Bifunctional epoxide hydrolase 2 (EPHX2, Homo sapiens, UniProt P34913)
UniProt P34913, sequence (whole entry, looked up): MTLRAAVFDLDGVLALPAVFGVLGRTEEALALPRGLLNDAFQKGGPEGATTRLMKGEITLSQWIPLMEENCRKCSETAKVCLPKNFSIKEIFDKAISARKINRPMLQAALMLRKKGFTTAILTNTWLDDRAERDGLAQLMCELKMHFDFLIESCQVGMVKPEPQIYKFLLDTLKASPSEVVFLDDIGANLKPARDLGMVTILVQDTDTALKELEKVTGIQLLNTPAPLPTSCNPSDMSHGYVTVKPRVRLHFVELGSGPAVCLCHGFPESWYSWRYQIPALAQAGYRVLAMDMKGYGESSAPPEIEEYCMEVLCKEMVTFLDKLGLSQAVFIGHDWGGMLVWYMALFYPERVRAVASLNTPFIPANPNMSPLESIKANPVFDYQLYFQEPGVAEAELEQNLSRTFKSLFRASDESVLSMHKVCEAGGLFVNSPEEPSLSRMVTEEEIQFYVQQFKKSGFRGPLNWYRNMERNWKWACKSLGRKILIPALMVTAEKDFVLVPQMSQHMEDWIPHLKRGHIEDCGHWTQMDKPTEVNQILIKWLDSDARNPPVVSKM
Observed: enzyme activity
Mode: inhibitor

| Structure (SMILES) | technique | pH | notes | IC50 [nM] |
| --- | --- | --- | --- | --- |
| CC12CC3(C)CC(C)(C1)CC(NC(=O)NC14CC5CC(CC(C5)C1)C4)(C2)C3 | fluorescence |  |  | 6.1 |
| O=C(Nc1ccc(-c2nc(-c3ccccc3)cs2)cc1)C1CCN(CC2CCCCC2)CC1 | fluorescence | pH 7.4 | with preincubation | 1150 |
| CCCC(=O)N1CCN(C(=O)c2ccc(NC(=O)NC34CC5CC(C)(CC(C)(C5)C3)C4)cc2)CC1 |  |  |  | 0.89 |
| CCS(=O)(=O)N1CCC(NC(=O)Nc2ccc(OC(F)(F)F)cc2)CC1 |  |  |  | 2.4 |
| CC1(C)[C@H]2CC[C@]1(C)[C@H](NC(=O)Nc1ccc(F)cc1)C2 | fluorescence |  |  | 4 |
| CC12CC3CC(C)(C1)CC(NC(=O)Nc1ccc(C(=O)N4CCCC(C(N)=O)C4)cc1)(C3)C2 (centres unmarked) |  |  |  | 0.25 |
| COc1cc(C(=O)O)ccc1Cc1cn(C)c2ccc(NC(=O)OC3CCCC3)cc12 | fluorescence |  |  | 300 |
| COc1cc2cc(C(=O)NCCc3ccc(O)cc3)c(C(=O)NCCc3ccc(O)cc3)cc2cc1O |  |  |  | 8900 |
| O=C(Nc1ccc(-c2nc(-c3ccccc3)cs2)cc1)C1CCN(Cc2ccccc2O)CC1 | fluorescence | pH 7.4 | with preincubation | 136 |
| CNC(=O)C1CCN(C(=O)c2ccc(NC(=O)NC34CC5CC(C)(CC(C)(C5)C3)C4)cc2)CC1 |  |  |  | 0.74 |
| O=C(Nc1ccc(-c2nc(-c3ccccc3)cs2)cc1)C1CCN(Cc2ccccc2)CC1 | fluorescence | pH 7.4 | with preincubation | 223 |
| O=C(NCCc1ccc(O)cc1)C1=Cc2cc(O)c(O)cc2[C@H](c2ccc(O)c(O)c2)[C@H]1C(=O)NCCc1ccc(O)cc1 |  |  |  | 8300 |
| O=C(Nc1ccc(-c2nc(-c3ccccc3)cs2)cc1)C1CCN(Cc2ccc(O)cc2)CC1 | fluorescence | pH 7.4 | with preincubation | 281 |
| CC12CC3CC(C)(C1)CC(NC(=O)Nc1ccc(C(=O)N4CCC(NC(=O)C5CC5)CC4)cc1)(C3)C2 |  |  |  | 0.6 |

Excerpt of the above:
| Structure (SMILES) | technique | pH | notes | IC50 [nM] |
| --- | --- | --- | --- | --- |
| CCCC(=O)N1CCN(C(=O)c2ccc(NC(=O)NC34CC5CC(C)(CC(C)(C5)C3)C4)cc2)CC1 |  |  |  | 0.89 |
| CCS(=O)(=O)N1CCC(NC(=O)Nc2ccc(OC(F)(F)F)cc2)CC1 |  |  |  | 2.4 |
